Measured values gathered from unrelated publications.
B1: EAF2 114-260 (Homo sapiens, UniProt Q96CJ1); sequence looked up; chain VEGSSKIQYRKEQQQQQMWNSARTPNLVKHSPSEDKMSPASPIDDIERELKAEASLMDQMSSCDSSSDSKSSSSSSSEDSSSDSEDEDCKSSTSDTGNCVSGHPTMTQYRIPDIDASHNRFRDNSGLLMNTLRNDLQLSESGSDSDD
B2: UGT1A9 (Homo sapiens, UniProt O60656); chain GKLLVVPMDGSHWFTMRSVVEKLILRGHEVVVVMPEVSWQLGRSLNCTVKTYSTSYTLEDLDREFKAFAHAQWKAQVRSIYSLLMGSYNDIFDLFFSNCRSLFKDKKLVEYLKESSFDAVFLDPFDNCGLIVAKYFSLPSVVFARGILCHYLEEGAQCPAPLSYVPRILLGFSDAMTFKERVRNHIMHLEEHLLCHRFFKNALEIASEILQTPVTEYDLYSHTSIWLLRTDFVLDYPKPVMPNMIFIGGINCHQGKPLPMEFEAYINASGEHGIVVFSLGSMVSEIPEKKAMAIADALGKIPQTVLWRYTGTRPSNLANNTILVKWLPQNDLLGHPMTRAFITHAGSHGVYESICNGVPMVMMPLFGDQMDNAKRMETKGAGVTLNVLEMTSEDLENALKAVINDKSYKENIMRLSSLHKDRPVEPLDLAVFWVEFVMRHKGAPHLRPAAHDLTWYQYHSLDVIGFLLAVVLTVAFITFKCCAYGYRKCLGKKGRVKKAHKSKTH
Sequence of UniProt P09038 (whole entry, looked up): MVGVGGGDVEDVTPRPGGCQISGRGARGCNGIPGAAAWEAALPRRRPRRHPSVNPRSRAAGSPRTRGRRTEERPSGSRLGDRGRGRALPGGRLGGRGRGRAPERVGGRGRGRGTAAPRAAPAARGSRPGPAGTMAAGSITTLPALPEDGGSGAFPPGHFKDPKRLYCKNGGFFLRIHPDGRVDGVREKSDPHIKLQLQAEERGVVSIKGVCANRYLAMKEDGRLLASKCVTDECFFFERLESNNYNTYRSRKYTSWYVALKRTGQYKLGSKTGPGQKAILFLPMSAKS
Sequence of UniProt P40337 (whole entry, looked up): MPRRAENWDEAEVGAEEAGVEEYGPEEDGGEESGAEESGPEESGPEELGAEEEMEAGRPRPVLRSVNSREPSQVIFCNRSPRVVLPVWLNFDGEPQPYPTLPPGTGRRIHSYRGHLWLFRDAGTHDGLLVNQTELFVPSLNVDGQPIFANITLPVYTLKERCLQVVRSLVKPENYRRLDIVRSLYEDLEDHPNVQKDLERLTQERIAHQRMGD
Sequence of UniProt P45983 (whole entry, looked up): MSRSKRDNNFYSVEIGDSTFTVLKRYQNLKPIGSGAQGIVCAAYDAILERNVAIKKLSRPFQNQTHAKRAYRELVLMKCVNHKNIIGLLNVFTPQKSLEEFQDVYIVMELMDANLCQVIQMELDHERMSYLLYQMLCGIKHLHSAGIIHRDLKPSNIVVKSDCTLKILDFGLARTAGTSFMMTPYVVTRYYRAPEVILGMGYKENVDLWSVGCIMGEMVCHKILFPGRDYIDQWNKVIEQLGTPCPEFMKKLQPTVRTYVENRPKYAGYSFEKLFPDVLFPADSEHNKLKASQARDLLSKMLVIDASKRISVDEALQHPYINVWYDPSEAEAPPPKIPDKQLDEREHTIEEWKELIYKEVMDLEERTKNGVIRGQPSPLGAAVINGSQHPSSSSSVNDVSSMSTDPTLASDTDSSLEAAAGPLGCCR
Sequence of UniProt Q61851 (whole entry, looked up): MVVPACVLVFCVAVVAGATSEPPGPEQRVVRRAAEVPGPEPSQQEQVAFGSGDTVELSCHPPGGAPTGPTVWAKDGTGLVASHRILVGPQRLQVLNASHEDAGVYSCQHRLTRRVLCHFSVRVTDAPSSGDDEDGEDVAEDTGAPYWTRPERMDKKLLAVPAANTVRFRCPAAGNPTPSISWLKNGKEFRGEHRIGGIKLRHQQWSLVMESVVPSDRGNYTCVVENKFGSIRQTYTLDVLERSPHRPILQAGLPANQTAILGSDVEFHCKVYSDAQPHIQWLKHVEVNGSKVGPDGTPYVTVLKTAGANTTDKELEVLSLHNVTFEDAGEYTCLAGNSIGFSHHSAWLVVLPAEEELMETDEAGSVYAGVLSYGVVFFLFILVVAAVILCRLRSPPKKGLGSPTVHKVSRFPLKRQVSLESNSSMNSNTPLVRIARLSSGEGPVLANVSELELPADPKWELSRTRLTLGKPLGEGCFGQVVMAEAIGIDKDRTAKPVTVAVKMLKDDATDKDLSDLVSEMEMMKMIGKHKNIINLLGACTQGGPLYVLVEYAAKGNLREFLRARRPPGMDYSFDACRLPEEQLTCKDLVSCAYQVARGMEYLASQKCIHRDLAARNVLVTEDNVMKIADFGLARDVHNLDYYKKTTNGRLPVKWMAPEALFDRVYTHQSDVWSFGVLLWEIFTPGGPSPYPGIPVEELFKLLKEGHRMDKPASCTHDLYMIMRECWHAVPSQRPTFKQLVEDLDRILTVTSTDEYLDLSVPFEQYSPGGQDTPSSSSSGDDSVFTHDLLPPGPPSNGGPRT
Sequence of UniProt Q96524 (whole entry, looked up): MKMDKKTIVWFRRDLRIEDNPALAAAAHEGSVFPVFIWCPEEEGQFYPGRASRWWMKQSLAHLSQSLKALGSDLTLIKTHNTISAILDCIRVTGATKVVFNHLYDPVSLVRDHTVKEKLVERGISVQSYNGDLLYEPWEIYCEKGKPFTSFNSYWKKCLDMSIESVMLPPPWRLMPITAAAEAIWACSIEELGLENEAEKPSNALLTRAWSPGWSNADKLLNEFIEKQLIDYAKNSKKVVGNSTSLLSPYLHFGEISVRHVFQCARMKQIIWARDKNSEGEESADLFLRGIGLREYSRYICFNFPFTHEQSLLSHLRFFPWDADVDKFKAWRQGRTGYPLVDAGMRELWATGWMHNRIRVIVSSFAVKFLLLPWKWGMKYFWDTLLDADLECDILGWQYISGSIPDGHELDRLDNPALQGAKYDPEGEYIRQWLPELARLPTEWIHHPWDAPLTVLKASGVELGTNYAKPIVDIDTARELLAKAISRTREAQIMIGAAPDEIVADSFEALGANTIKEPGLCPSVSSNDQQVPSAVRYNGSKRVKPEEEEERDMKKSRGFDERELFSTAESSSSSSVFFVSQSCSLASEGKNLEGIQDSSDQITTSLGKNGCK
Sequence of UniProt P43254 (whole entry, looked up): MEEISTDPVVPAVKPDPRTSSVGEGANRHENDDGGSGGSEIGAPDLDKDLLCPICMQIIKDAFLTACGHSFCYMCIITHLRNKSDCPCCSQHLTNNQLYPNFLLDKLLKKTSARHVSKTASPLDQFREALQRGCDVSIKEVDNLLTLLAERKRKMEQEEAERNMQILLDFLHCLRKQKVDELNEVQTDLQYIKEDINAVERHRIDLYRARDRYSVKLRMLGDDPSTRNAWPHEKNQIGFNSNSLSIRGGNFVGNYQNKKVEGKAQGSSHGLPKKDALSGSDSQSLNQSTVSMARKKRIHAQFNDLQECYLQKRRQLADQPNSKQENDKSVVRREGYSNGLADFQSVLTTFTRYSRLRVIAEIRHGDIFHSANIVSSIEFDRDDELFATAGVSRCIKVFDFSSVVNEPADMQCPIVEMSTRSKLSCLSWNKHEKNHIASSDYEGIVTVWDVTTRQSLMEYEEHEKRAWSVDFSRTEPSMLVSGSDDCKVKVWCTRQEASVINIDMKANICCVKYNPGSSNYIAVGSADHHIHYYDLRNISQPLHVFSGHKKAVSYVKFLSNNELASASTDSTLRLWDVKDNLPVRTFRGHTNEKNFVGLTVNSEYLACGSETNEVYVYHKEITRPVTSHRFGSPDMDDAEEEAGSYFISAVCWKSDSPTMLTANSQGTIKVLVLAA
Sequence of UniProt P29375 (whole entry, looked up): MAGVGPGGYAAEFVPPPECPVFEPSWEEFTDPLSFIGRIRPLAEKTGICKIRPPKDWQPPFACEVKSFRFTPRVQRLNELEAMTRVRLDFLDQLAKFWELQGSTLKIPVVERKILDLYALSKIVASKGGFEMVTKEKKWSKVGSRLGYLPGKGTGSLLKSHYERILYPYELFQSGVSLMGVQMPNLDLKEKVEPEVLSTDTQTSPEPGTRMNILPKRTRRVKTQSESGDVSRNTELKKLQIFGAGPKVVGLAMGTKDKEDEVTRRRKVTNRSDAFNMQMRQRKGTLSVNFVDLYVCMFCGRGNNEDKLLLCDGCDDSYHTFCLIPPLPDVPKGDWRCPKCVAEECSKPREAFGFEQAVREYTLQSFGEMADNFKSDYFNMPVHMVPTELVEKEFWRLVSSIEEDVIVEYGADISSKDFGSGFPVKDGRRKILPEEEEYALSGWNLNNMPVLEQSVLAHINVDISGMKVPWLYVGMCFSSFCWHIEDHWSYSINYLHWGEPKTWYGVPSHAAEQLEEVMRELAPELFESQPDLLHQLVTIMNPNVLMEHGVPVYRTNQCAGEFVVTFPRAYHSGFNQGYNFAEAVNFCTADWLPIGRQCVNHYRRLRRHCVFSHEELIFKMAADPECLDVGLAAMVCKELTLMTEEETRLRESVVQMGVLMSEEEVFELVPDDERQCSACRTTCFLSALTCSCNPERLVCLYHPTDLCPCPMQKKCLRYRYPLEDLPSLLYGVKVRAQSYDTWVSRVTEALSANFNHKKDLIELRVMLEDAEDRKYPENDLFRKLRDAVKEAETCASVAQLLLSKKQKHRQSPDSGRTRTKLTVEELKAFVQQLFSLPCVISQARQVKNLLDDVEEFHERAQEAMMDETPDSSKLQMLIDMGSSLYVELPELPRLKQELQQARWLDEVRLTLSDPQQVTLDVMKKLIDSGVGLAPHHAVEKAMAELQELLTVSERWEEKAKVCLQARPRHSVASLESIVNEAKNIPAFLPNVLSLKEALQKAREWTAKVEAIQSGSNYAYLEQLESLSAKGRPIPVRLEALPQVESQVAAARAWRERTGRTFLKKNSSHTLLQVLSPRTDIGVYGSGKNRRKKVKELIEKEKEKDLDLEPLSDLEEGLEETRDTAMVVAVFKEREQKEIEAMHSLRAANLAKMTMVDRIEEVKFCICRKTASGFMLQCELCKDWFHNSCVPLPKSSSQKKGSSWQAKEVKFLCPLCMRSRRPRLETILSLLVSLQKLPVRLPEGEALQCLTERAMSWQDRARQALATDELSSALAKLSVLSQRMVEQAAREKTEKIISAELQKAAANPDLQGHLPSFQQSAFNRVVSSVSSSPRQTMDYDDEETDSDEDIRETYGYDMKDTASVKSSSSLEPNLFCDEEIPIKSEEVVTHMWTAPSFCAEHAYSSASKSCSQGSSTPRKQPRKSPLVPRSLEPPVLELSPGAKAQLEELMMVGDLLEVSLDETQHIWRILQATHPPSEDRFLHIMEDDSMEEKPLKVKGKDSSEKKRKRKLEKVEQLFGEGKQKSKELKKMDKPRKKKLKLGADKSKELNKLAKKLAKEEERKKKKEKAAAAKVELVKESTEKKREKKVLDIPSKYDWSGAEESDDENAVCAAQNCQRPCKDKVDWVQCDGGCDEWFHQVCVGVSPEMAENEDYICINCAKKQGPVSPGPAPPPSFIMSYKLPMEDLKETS
Sequence of UniProt P25685 (whole entry, looked up): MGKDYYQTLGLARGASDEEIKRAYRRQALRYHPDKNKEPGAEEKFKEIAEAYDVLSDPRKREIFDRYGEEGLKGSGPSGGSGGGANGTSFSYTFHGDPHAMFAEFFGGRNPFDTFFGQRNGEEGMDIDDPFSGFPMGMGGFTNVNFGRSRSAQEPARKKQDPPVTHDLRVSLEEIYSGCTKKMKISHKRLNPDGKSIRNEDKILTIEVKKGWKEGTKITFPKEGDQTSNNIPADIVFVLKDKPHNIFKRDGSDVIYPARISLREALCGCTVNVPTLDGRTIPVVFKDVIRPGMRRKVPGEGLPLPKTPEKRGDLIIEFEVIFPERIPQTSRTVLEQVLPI

B1 (EAF2 114-260) — protein half-life (VHL (Homo sapiens, UniProt P40337); pVHL stability after cycloheximide; in cells, added: Myc-U19/Eaf2): < 4 h
Cacng2 (Rattus norvegicus, UniProt Q71RJ2) — current ratio (Gria2 mature (Rattus norvegicus, UniProt P19491); kainate vs glutamate steady-state currents; oocytes, proteoliposomes; higher = larger kainate response): 0.5
COP1 (Arabidopsis thaliana, UniProt P43254) — beta-galactosidase signal (CRY2 (Arabidopsis thaliana, UniProt Q96524); yeast three-hybrid; blue light, added: SPA1; baseline: dark, higher = stronger interaction): > 5 fold
thyrotropin-releasing hormone, pyroGlu, C-terminal amide (Gallus gallus) — EC50 (protein (Gallus gallus, UniProt A0A4P9IVJ2); calcium signaling, NFAT-RE luciferase reporter, agonist; HEK 293): 1.23 nM
POLB (Homo sapiens, UniProt P06746) — hairpin retention (MSH2/MSH3; Polβ-catalysed CAG hairpin retention; added: MutSβ 1 pmol; baseline: same reaction without MutSβ, higher = more retention): 3 fold
FGF2 (Homo sapiens, UniProt P09038) — cell proliferation (FGFR3 isoform IIIc (unknown, UniProt Q61851); cell proliferation, MTT; BaF3-FGFR3c; 20 nM, 48 h, added: chondroitin sulfate E 4.9 µg/mL; baseline: FGF 1 with heparin, higher = more proliferation): 34%
ARVKWTARKS (Histone H3.1 2-11 T3V/Q5W (Homo sapiens, UniProt P68431); sequence looked up) — Ki (KDM5A 287-347 (Homo sapiens, UniProt P29375); competition with labeled peptide, fluorescence polarisation; peptide; added: H3 peptide): 15.6 µM
PTPRZ1 Fc fusion extracellular C, F, S domains — neurite outgrowth (Nrcam (Mus musculus, UniProt Q810U4); neurite outgrowth, inhibitor; cerebellar cells; 100 µg/mL, added: anti-Nr-CAM Fab' 100 µg/mL; higher = more inhibition): > 40%
WTGWCLNPEESTWGFCTGSF (Fc fusion of EC-1 peptide human IgG Fc (Homo sapiens)) — ADCC (ERBB2 (Homo sapiens, UniProt P04626); LDH release cell death; Fc fusion, parental SKBR-3; 1 µM, added: PBMC effector:target ratios; higher = more cell death): 70%
YAKRKRKKREKLILTL (WDR3 D-site peptide (Homo sapiens)) — IC50 (MAPK8, pT183, pY185 (Homo sapiens, UniProt P45983); kinase activity, inhibitor, competitive kinase inhibition assay; peptide; added: ATP 1 mM): 900 nM
DNAJB1 (Homo sapiens, UniProt P25685) — relative activity (HSPA1A (Homo sapiens, UniProt P0DMV8); luciferase refolding; 30 nM, 150 min, 30 °C, added: Hsp72 3 µM; baseline: non-denatured luciferase, higher = more refolding): 70%
B2 (UGT1A9) — Vmax (O=c1ccoc2cc(O)ccc12; steady-state kinetics; pH 7.4, 37 °C): 0.000668 µmol/min/mg
Itgam/Itgb2 Mac-1 (Mus musculus) — phagocytosis (LL-37 (Homo sapiens); phagocytosis of latex beads; mouse peritoneal macrophages; baseline: untreated beads, higher = more phagocytosis): 4.5 fold

Excerpt of the above:
ARVKWTARKS (Histone H3.1 2-11 T3V/Q5W (Homo sapiens, UniProt P68431); sequence looked up) — Ki (KDM5A 287-347 (Homo sapiens, UniProt P29375); competition with labeled peptide, fluorescence polarisation; peptide; added: H3 peptide): 15.6 µM
